Assay results from different studies.

CCOc1c([C@H](C)n2nc(C)c3c(N)ncnc32)cc(Cl)c(F)c1[C@@H]1CNC(=O)C1  patients with high heart rate (item: heart rate > 100 bpm; previously treated B-cell malignancy; oral, 20 mg once daily): 5.9%
CNC(=O)c1cc(Oc2ccc(NC(=O)Nc3cc(C(C)(C)C)nn3-c3ccc4ncccc4c3)c(F)c2)ccn1  patients with nervous system disorders (patients; oral, dose not given, cycles 1 and 2, Low AUC subgroup): 20%
COc1ccc([C@@H](O)c2cc(-c3ncnc4cc(N5CCOCC5)ccc34)c(F)cc2Cl)nn1  patients with fatigue (locally advanced rectal cancer patients; 250 mg, drug-related adverse events, with: capecitabine and radiotherapy): 0%
FC(F)(F)c1ccc(CNc2ccc(Cc3c[nH]c4ncc(Cl)cc34)cn2)cn1  patients with treatment-related adverse event (item: aspartate aminotransferase increased; non-TGCT solid tumour patients; oral, 1000 mg/day, grade 3 or higher): 4%
COc1cc2nccc(Oc3ccc(NC(=O)c4cc5c(n(-c6ccccc6)c4=O)CCCC5=O)nc3)c2cc1OC  patients with drug-related serious TEAEs (patients with relapsed/refractory AML; oral, 6 mg once daily): 0%
COc1cc(Nc2ncc3c(n2)-c2ccc(Cl)cc2C(c2c(F)cccc2OC)=NC3)ccc1C(=O)O  patients with adverse event (item: increased AST, grade 2; cancer patients, phase 1/2; oral, dose not given, with: pembrolizumab): 4%
C[C@@H](Nc1cc(F)cc(F)c1)c1cc(C(=O)N(C)C)cc2c(=O)cc(N3CCOCC3)oc12  patients discontinuing for AE (item: Fatigue; advanced solid tumour patients; oral, dose not given, dose finding): 0%
C[C@@H](c1ccc2nccn2c1)n1nnc2ncc(-c3cnn(C)c3)nc21  patients with adverse events (item: treatment-related grade ≥3 Thrombocytopenia; EGFR-mutant MET-altered NSCLC; oral, dose not given, all): 1%
Cc1cc(NC2CCN(C(=O)OC3CCN(C(=O)/C=C/CN(C)C)C3)CC2)n2ncc(C(C)C)c2n1 (stereo not drawn)  patients with adverse event (Phase I dose escalation CTCAE v4.0, item: urinary tract infection; patients with advanced solid tumours; dose not given, Total dosing any grade): 6%
C=CC(=O)NC1CCN(c2ncc3ncnc(Nc4ccc(Oc5ccc6c(c5)ncn6C)c(C)c4)c3n2)CC1  patients with Nasopharyngitis (male patients; oral, dose not given, on-treatment adverse events): 6%
Cc1cc(-c2nnc(N)nc2-c2ccc(F)cc2)cc(Cl)n1  patients with immune-mediated AE (item: Rash; IO-naive colorectal cancer patients; oral, dose not given, treatment-related, grade 2): 0%
C=CC(=O)Nc1cc(Nc2nccc(-c3cn(C)c4ccccc34)n2)c(OC)cc1N(C)CCN(C)C  patients with adverse events (item: treatment-related grade ≥3 Pain; EGFR-mutant MET-altered NSCLC; oral, dose not given, all): 2%
CNC(=O)c1ccc(-c2cnc3ncc(Cc4ccc5ncccc5c4)n3n2)cc1F  patients with adverse event (item: Pyrexia; cancer patients; oral, 600 mg twice daily, all expansion cohorts, grade 3-4): 3%
O=C(Nc1nc2cccc(-c3ccc(CN4CCS(=O)(=O)CC4)cc3)n2n1)C1CC1  patients with Dyspepsia (rheumatoid arthritis patients; oral, 100 mg twice daily, 4 weeks, TEAE regardless of relatedness): 0%
NC(=O)N1c2ccccc2C=Cc2ccccc21  patients with Pruritus (male patients; oral, dose not given, on-treatment adverse events): 7%
